# Experimental data from different studies.
# A part holds a random share of what one study measured.

# Series 1 — technique: RNA Bind-n-Seq; form: RNA; medium: in vitro; tested at: not given; relative to: input RNA pool; reading: higher = stronger binding
# Target: RING finger protein unkempt homolog, zinc fingers 1-6, GST-SBP tag (UNK, Homo sapiens, UniProt Q9C0B0, residues 30-357)
# Chain of UniProt Q9C0B0 (30-357, looked up): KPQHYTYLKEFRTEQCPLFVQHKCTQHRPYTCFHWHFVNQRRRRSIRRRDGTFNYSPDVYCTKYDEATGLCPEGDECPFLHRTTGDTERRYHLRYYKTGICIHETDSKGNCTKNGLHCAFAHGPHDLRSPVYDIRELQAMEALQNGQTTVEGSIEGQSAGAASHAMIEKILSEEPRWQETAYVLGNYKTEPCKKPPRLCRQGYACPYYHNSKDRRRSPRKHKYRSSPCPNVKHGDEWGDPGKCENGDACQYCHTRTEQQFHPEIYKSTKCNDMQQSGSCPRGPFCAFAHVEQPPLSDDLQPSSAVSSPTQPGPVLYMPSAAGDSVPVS
# Notes: RNA with constant flanks, human-mouse chimeric sites, ends assumed
# All sequences stand within: GGGAGUUCUACAGUCCGACGAUC … CAACAGAGGAUUGAGCAUCA
Oligonucleotide,bound/input enrichment
UACUCAACUUUCUUGCCACGUUUUGAAUUCCAAGACAUUAUCCCUCCAGAUGACUUCCUAACGAGUGAUGAAGAGCAAGAUUUGGUUUUAUUUGGAACUAUGAGAGGACAAGUUGUUGGA,0.208 ratio
UGUAACUUAUCUGUAAAAGGUUCCCCCCCCCUACUGUAAAAAAAUAUGCAUGUAUAGUAAUUAGGACUUCAUUCCUCCAUGUUUUCUUCCCUUAUCUUACUGUCAUUGUCCUUAAACCUU,5.29 ratio
UGGCGCCUGCGCUCCCCACUCGUGUUUUUAAGUGUAUUUUUAUAAGAUACAUGUAUUUACAAUUGAGCUUUUGUUACAUAAUGCUGAAAACAUCUCUCAAUAUUAUGAAAAUGUUUCAAU,0.133 ratio
AGUGUGCAGGAAUUCAUGACCUUCACGAGUCAACUGAUUGUGGAACGCUCGGGGAAAGGCAGCAGAGCUUCUGUCAAAGAACAAGAGUAUCUUUGCCAUGUCUACGUCCGGAAUGAUAGU,0.126 ratio
CUGUGUGUGCUGAAUAAAUGGCUUGUAAAGAAGUUUUUCCAAGCUGUAACCCAUGCUGUUAUUAUAGUUGCUGCAAAAUGUUCUUCCUAUUGAUGUUUUUAUUUGUUAACUGAAGGUCUC,0.278 ratio
AAAGAGAAACUAAAGCAAACUGAUUGAAAGAGGAUUGGCAAAGAGAAUUUCAUAGAGGAAACUAGGAUUAUUAGCAAACAUGAGUUAUAUUCCAGAGCGUCUCAGAAACCCCAGCCAAAC,2.66 ratio
UUGCCUGAAAAUGAAGAUGAGCUGGAGAGCACCAACAGGCGCUACACCAAGAGGGACUGCAGCACUUUCCUCAGAACUAGUGAGACGGGCAUCGUGGACCAGGUCAUGGUCACUCUCAAC,0.164 ratio
UCUUUAAAAAAAAAAUUACCUUUUCUGACAGUGCUUUCCCUCCCAUAGAUCCACGUUCACACUAGAAGAGCAAAGGCUUUGCACGGAUCUGAUGAUGCUGAUGAAGAAAGAUUUCUGAGA,0.681 ratio
CCCCACAUACCAUCUGUGGUCUGGAACUGCACUCUCUUUUUUAAAAAACAUGUAUACAUUUUAGGGCUGUAGAUUUAUUUUCCUGGUUUUGUUUUUCAUUGCUGACUUUUGAGCACAGAA,2.3 ratio
GAUAAGAAAAGCUUGUUGGAGACCCGCUUGCAUGUCACUGGCAGAGACCUGAGGUGUAAAAUAGCUGAAACUUUCGGAUUUCAAGAAAAUUACAUCAAGAUCGUAAUAAAUAAGAAACAG,0.2 ratio
GUCAACAGCUGCCUCAACCCCAUCCUCUACGCCUUCCUGGAUGAGAACUUCAAGGCCUGCUUCCGCAAGUUCUGCUGUGCAUCUGCCCUGCACCGGGAGAUGCAGGUGUCUGACCGCGUG,0.286 ratio

# Series 2 — technique: RNA Bind-n-Seq; form: RNA; medium: in vitro; tested at: 200 nM; notes: whole 134-nt RNA, ends assumed; added: 150 mM LiCl; relative to: input library; reading: higher = stronger binding; all molecules: 7-deaza-guanosine replaces G
# Target: Fragile X messenger ribonucleoprotein 1, C-terminal low-complexity region (Fmr1, Mus musculus, UniProt P35922)
# All sequences stand within: GGGAGUUCUACAGUCCGACGAUC … UGGAAUUCUCGGGUGUCAAGG
Oligonucleotide,log2 enrichment
AGUCCUGUGCUACACAUCGUAUGUACCGAAUCGGGGCCCCGGGCCCCGGGCCCCGGGGAAAGUAUUAUGUUACGCCGUUCGGAUCUGCAC,-3.06
UACAGACAACACGCACCCACACAGACACAGAGGGAAGGGGUUGGGAUGGGGACAGGGUGCACAGCAGGGCGGGGUAGGACCCCAGCCCCU,-0.374
AGUCCUGUGCUACACAUCGUAUGUACCGAAUCGGGGUUUUUGGUUUUUGGGUUUUUGGAAAGUAUUAUGUUACGCCGUUCGGAUCUGCAC,-1.61
UCAAGUCCUGUGCUACACAUCGUAUGUACCGAAUCGGAAAGGUGGUUUUUUUGGAAAGUAUUAUGUUACGCCGUUCGGAUCUGCACUUCC,-0.286
CACAGACAACACGCACCCACACCGACACAGAGGGAAGGGGUUGGGAUGGGGACAGGGUGCACAGCAGGGCGGGGUAGGACCCCAGCCCCU,-0.227
UUCAAGGAAAAACAAGAGGAGCAGGCUCGCCUCCUUGAUGAACUGGCAGGCAAGCUACAAAGCCUAGACCUUUCAGCCGCUGCCGAAAUG,-3.17
UCCUGUGCUACACAUCGUAUGUACCGAAUCGGGUUUGGGUUUUUUUGGGUUUUUUUGGGAAAGUAUUAUGUUACGCCGUUCGGAUCUGCA,0.223
CAAGUCCUGUGCUACACAUCGUAUGUACCGAAUCGGCCCGGGGCCCGGGCCCGGGAAAGUAUUAUGUUACGCCGUUCGGAUCUGCACUUC,-1.86
UGGACUUGCGGGUUCCCAUCUGGGACCAGGACAUACAGUUUCUCCCAGGAUCACAGAAGCUUGUCACCUGCACAGGGUACCACCAGGUAA,-0.43
UGGCCGUGGUGGCAUGCGGGGAGGAAGAGGUGGCCUCAUGGAUCGUGGUGGUCCCGGUGGAAUGUUCAGAGGUGGCCGUGGUGGAGACAG,0.0195
AGUCCUGUGCUACACAUCGUAUGUACCGAAUCGGGAAAAGGGGAAAAGGGAAAAGGGAAAGUAUUAUGUUACGCCGUUCGGAUCUGCACU,-0.835

# Series 3 — technique: RNAcompete; form: RNA; medium: in vitro; tested at: 20 nM; notes: 7-mer, probes averaged, single round; relative to: mean of 7-mers; reading: higher = stronger binding
# Target: PABPC1L2, full length, GST fusion (mouse, UniProt A0ABA7IW68)
# Construct (chain): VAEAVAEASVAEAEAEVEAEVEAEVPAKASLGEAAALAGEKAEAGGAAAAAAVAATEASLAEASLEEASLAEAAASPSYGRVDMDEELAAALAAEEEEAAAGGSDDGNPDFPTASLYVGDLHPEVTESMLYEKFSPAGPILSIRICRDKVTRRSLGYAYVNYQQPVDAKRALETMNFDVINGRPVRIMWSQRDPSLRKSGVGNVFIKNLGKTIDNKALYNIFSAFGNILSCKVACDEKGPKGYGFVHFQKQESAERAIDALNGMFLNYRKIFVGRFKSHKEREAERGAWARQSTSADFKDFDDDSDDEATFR
Oligonucleotide,7-mer Z-score
AGUGACA,0.191
UGCUUCU,-0.291
CAUCGAC,-0.13
CGAGCGA,0.207
UUCAUUG,-0.258
AACUCUU,-0.28
AAGACUG,0.178
ACACGAU,0.104
AUCUCUC,-0.313
CACACUA,-0.012
UAACCAA,0.215
CAUACGC,-0.228
UUGCCUU,-0.255
CACCUCA,-0.186
AACGCCU,-0.113
AAGUUUC,-0.166

# Series 4 — technique: RNA Bind-n-Seq; form: RNA; medium: in vitro; tested at: 365 nM; relative to: no-protein control; reading: higher = stronger binding
# Target: RNA binding protein fox-1 homolog 2, RRM domain, GST-SBP tag (RBFOX2, Homo sapiens, UniProt O43251-10, residues 100-194)
# Notes: natural RNA segment, single round, ends assumed
# All sequences stand within: GGGAGUUCUACAGUCCGACGAUC … UGGAAUUCUCGGGUGCCAA
# Residues (chain): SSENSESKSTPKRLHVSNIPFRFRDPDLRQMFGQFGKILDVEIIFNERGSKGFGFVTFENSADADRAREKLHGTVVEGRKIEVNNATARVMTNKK
Oligonucleotide,RBNS enrichment (R)
AGACUAAUUCUUGUCAGGCAUUUUUGAAAAGGCUGAUUAUGUGUAUCAAGGUACAGCAUCGUAGGGUUCCCCUAAACUUGCCCUGUUUUUGUUUUUUUAGUUUGUUAUCC,2.22
AAAUUCCAGCACCAAGUGUUGUGGCAACAGCUGAGAGAGUGCAGGCACCACUGUGUUGUGGCUUGUUGACCGGGAAUGUGUCACCCCUGCCAGGGAACUCUUCUCCUCGC,0.496
AUCAGGUGUGAACUUGGCUGCUAGCGUAUGAACCCAGAUGUGACGCAGAGCCUCUGCAGCGAUCUUCUCCAACUGUUCUGUAAUCUCUACUCAACAAUAAGGUUUUAGUU,0.771
UACAGGCGUGAGCCACUGCGCCCGGGCAAGACCUUUUUUUAAAAAAAAAAAAAAAAAAACUUCCAUUCUUUCUUCCUCCAGUCUGUUCUCACAUAACAGAGUAGUUUUGG,0.467
UUUCUUUUGUACUUUCCUAUAGAUGCUAUAGCAUUUGAGUGUGGCAAUAUUUUUGUUGUGUAUAGAUGUCUAAGAACCAACACUACUCAGUCUCCUGCUAGUCUGACUCC,0.398
GUAGUUCUUUUCUGGCCCUUUCCCCUGCCUGGUCUAGCAACUCUUGGAACAGCCAUGCCUUCCAAAAGCUAUCAACCUGGGCCCUGAGCCCUGUAAGCAGAUGCCCCAGA,0.273
AAAUUCUCACAGGCCAGGCUCUGUGCGGGCUCUAGUGCCAGGUGUAGCUGGGUACAUUCCCCGUCAGUGUGACUUCCUUUCAUUUUGACAACUUCCUUCCUUUAAGAUGC,0.474
UGUCUGUUAAAUGAAUGUCAUAUGUAAAUGCUAAAAUAAAUCGACAGUGUCUCAGAACUGAAUAACUGCAGUGACUUGAUGCUCUAAAACAGUGUAGGAUUUAAGAAUAG,0.559
CAGUCAAACUGUGAAGCACUAAGCUGACCCUGCUUCAAGCAAUUUUGUUUUUACAACUGUUCCUUUCACAAGCAAGCCUUAAAAAAAAAAAAGACAACUUCCUUUUUCUU,0.783
ACGGUGCCAAAAUUCAUUUUCUAACACCAUGUGUUAGAAAAUUAUAAAAAAUAAAAUAAUUUUAGAAGUUUUGUUGUUCUAUUAUUGGUGUUUAUCUUCCAACGUGAAUA,0.836
CCAAAUUGUUAGACAGCAUCAGGAUUGCGGAUUAUCUCAAGUAGAUUUUGUUAGAGUUCAGAGCACAGCAUCACUCUGAAGGAGUCUGUCUUAUAAAUACAUAAUUACUG,0.563
AUGUGACCAGGUGUCGUCCUGCAUGUAAAUCUCCGAGCUGAGUCUGACUCACAGCCCAUGCUGUCAUCUGUGGCACAAGUGGGUGUGAGUACGUCCUGCAUGCACUAACG,2.04

# A few entries again (series 2):
Oligonucleotide,log2 enrichment
AGUCCUGUGCUACACAUCGUAUGUACCGAAUCGGGGCCCCGGGCCCCGGGCCCCGGGGAAAGUAUUAUGUUACGCCGUUCGGAUCUGCAC,-3.06
UACAGACAACACGCACCCACACAGACACAGAGGGAAGGGGUUGGGAUGGGGACAGGGUGCACAGCAGGGCGGGGUAGGACCCCAGCCCCU,-0.374
AGUCCUGUGCUACACAUCGUAUGUACCGAAUCGGGGUUUUUGGUUUUUGGGUUUUUGGAAAGUAUUAUGUUACGCCGUUCGGAUCUGCAC,-1.61
UCAAGUCCUGUGCUACACAUCGUAUGUACCGAAUCGGAAAGGUGGUUUUUUUGGAAAGUAUUAUGUUACGCCGUUCGGAUCUGCACUUCC,-0.286
